Published values collected from several papers.
Protocols differ between the studies behind these lines. Numbers after ± are the reported error.
Tested at: concentration not given
lecA: PA-I galactophilic lectin (lecA, Pseudomonas aeruginosa, UniProt Q05097)
UniProt Q05097, sequence (whole entry, looked up): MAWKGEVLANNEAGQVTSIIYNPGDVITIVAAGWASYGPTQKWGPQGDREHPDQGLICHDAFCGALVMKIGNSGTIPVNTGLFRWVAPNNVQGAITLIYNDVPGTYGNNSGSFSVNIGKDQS
Histone chaperone ASF1A: Histone chaperone ASF1A (Homo sapiens, UniProt Q9Y294)
UniProt Q9Y294, sequence (whole entry, looked up): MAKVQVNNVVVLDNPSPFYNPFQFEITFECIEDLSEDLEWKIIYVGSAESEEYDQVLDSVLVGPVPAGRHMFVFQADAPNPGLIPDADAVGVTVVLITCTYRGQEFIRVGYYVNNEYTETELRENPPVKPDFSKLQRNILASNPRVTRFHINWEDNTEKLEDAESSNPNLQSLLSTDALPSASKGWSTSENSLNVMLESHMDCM
UniProt P50750, sequence (whole entry, looked up): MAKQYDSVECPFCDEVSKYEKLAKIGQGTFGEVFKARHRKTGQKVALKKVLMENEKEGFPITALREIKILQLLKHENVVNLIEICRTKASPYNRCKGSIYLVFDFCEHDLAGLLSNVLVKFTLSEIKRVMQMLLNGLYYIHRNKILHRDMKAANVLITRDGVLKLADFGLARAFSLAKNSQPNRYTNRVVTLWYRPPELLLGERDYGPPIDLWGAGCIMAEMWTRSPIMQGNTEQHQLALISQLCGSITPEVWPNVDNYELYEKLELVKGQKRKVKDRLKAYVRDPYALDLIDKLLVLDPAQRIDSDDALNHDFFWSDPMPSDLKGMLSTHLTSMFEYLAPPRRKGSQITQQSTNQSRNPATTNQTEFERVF
UniProt P12004, sequence (whole entry, looked up): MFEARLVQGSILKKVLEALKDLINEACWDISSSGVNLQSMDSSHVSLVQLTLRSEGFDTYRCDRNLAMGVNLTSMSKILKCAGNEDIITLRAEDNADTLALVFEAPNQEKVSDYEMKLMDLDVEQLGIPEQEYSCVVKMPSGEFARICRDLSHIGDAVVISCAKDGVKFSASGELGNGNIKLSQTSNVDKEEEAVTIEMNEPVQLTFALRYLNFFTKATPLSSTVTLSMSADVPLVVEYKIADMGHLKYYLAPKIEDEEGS

Structure (SMILES) | target | technique | pH | temperature | notes | with | binding stoichiometry
OC[C@H]1O[C@@H](OCc2cn([C@@H]3O[C@H](CO)[C@@H](n4cc(-c5ccc(-c6cn([C@H]7[C@H](O)[C@@H](O)[C@H](n8cc(CO[C@@H]9O[C@H](CO)[C@H](O)[C@H](O)[C@H]9O)nn8)O[C@@H]7CO)nn6)cc5)nn4)[C@H](O)[C@H]3O)nn2)[C@H](O)[C@@H](O)[C@H]1O | lecA | isothermal titration calorimetry | – | 25 °C | – | – | 0.41 ± 0.09
CCCC[C@@H](CNC(=O)N[C@@H](CCC(N)=O)CNC(=O)N[C@@H](CCCNC(=N)N)C(=O)N[C@H](C(=O)N[C@@H](C)C(N)=O)[C@@H](C)CC)NC(=O)NC[C@H](CCCNC(=N)N)NC(=O)NC[C@H](Cc1ccc2ccccc2c1)NC(=O)[C@H](CCCCN)NC(=O)[C@H](CCC(=O)O)NC(C)=O | Histone chaperone ASF1A | isothermal titration calorimetry | pH 7.5 | 20 °C | – | – | 1.2 ± 0.1
O=C(COCc1ccccc1)N[C@@H](Cc1cn(CCNC(=O)c2ccc(S[C@@H]3O[C@H](CO)[C@H](O)[C@H](O)[C@H]3O)cc2)nn1)C(=O)NCCO | lecA | isothermal titration calorimetry | – | – | – | – | 1 ± 0.1
CC[C@H](C)[C@H](NC(=O)[C@H](CCCNC(=N)N)NC(=O)NC[C@H](CCC(N)=O)NC(=O)NC[C@H](CC(C)C)NC(=O)NC[C@H](CCCNC(=N)N)NC(=O)NC[C@H](CCc1ccccc1)NC(=O)[C@H](CCCCN)NC(=O)[C@H](CCC(=O)O)NC(C)=O)C(=O)N[C@@H](C)C(N)=O | Histone chaperone ASF1A | isothermal titration calorimetry | pH 7.5 | 20 °C | – | – | 1 ± 0.1
OC[C@H]1O[C@@H](Oc2ccc(OCCc3cn([C@H]4[C@H](O)[C@@H](O)[C@H](c5cn([C@H]6[C@H](O)[C@@H](O)[C@H](n7cc(CCOc8ccc(O[C@@H]9O[C@H](CO)[C@H](O)[C@H](O)[C@H]9O)cc8)nn7)O[C@@H]6CO)nn5)O[C@@H]4CO)nn3)cc2)[C@H](O)[C@@H](O)[C@H]1O | lecA | isothermal titration calorimetry | – | 25 °C | – | – | 0.5 ± 0.01
Clc1ccc2ccc3[n+](c2c1)[Ir-3]12([c]4ccccc4-3)([c]3ccccc3-c3ccc4ccc(Cl)cc4[n+]31)[n+]1ccccc1-c1cccc[n+]12.F[P-](F)(F)(F)(F)F | CDK9 (Homo sapiens, UniProt P50750) | isothermal titration calorimetry | – | 25 °C | – | – | 1.17 ± 0.05
[N-]=[N+]=NCCNC(=O)c1ccc(S[C@@H]2O[C@H](CO)[C@H](O)[C@H](O)[C@H]2O)cc1 | lecA | isothermal titration calorimetry | – | – | – | – | 0.9
CC[C@H](C)[C@H](NC(=O)[C@H](CCCNC(=N)N)NC(=O)NC[C@H](CCC(N)=O)NC(=O)NC[C@H](CC(C)C)NC(=O)NC[C@H](CCCNC(=N)N)NC(=O)NC[C@H](Cc1ccc2ccccc2c1)NC(=O)[C@H](CCCCN)NC(=O)[C@H](CCC(=O)O)NC(=O)[C@H](CCC(=O)O)NC(=O)[C@@H](NC(=O)[C@H](CO)NC(=O)[C@H](C)NC(C)=O)[C@@H](C)O)C(=O)N[C@@H](C)C(N)=O | Histone chaperone ASF1A | isothermal titration calorimetry | pH 7.5 | 20 °C | – | – | 1.2 ± 0.2
OC[C@H]1O[C@@H](Oc2ccc(-c3cn([C@H]4[C@H](O)[C@@H](O)[C@H](c5cn([C@H]6[C@H](O)[C@@H](O)[C@H](n7cc(-c8ccc(O[C@@H]9O[C@H](CO)[C@H](O)[C@H](O)[C@H]9O)cc8)nn7)O[C@@H]6CO)nn5)O[C@@H]4CO)nn3)cc2)[C@H](O)[C@@H](O)[C@H]1O | lecA | isothermal titration calorimetry | – | 25 °C | – | – | 0.46 ± 0.01
CSCC[C@H](NC(=O)[C@H](CO)NC(=O)[C@@H](NC(=O)[C@H](CCC(N)=O)NC(=O)[C@@H](CCCNC(=N)N)NC(=O)[C@@H](CCCNC(=N)N)NC(=O)[C@@H](CCCCN)NC(=O)[C@@H](CCCNC(=N)N)NC(C)=O)[C@@H](C)O)C(=O)N[C@H](C(=O)N[C@@H](CC(=O)O)C(=O)N[C@@H](Cc1ccccc1)C(=O)N[C@@H](Cc1ccc(O)cc1)C(=O)N[C@@H](Cc1c[nH]cn1)C(=O)N[C@@H](CO)C(=O)N[C@H](CCCCN)C(=O)N[C@H](CCCNC(=N)N)C(=O)N[C@H](CCCNC(=N)N)C(N)=O)[C@@H](C)O | PCNA (Homo sapiens, UniProt P12004) | isothermal titration calorimetry | pH 7.4 | 25 °C | 400 mM NaCl | p21 peptide | 0.73 ± 0.01
O=C(COCCCc1ccccc1)N[C@@H](Cc1cn(CCNC(=O)c2ccc(S[C@@H]3O[C@H](CO)[C@H](O)[C@H](O)[C@H]3O)cc2)nn1)C(=O)NCCO | lecA | isothermal titration calorimetry | – | – | – | – | 1
COCCOCCOc1cc(-c2cn([C@H]3[C@H](O)[C@@H](O)[C@H](n4cc(-c5ccc(O[C@@H]6O[C@H](CO)[C@H](O)[C@H](O)[C@H]6O)cc5)nn4)O[C@@H]3CO)nn2)c(OCCOCCOC)cc1-c1cn([C@H]2[C@H](O)[C@@H](O)[C@H](n3cc(-c4ccc(O[C@@H]5O[C@H](CO)[C@H](O)[C@H](O)[C@H]5O)cc4)nn3)O[C@@H]2CO)nn1 | lecA | ITC | – | – | 5% DMSO | – | 0.43 ± 0.03
CC[C@H](C)[C@H](NC(=O)[C@H](CCCNC(=N)N)NC(=O)[C@H](CCCNC(=N)N)NC(=O)[C@H](C)NC(=O)[C@H](CC(C)C)NC(=O)[C@H](CCCNC(=N)N)NC(=O)[C@H](C)NC(=O)[C@H](Cc1c[nH]c2ccccc12)NC(=O)[C@H](CCCCN)NC(=O)[C@H](CCC(=O)O)NC(C)=O)C(=O)N[C@@H](C)C(N)=O | Histone chaperone ASF1A | isothermal titration calorimetry | pH 7.5 | 20 °C | – | – | 1 ± 0.1
O=C(Cc1ccccc1O)N[C@@H](Cc1cn(CCNC(=O)c2ccc(S[C@@H]3O[C@H](CO)[C@H](O)[C@H](O)[C@H]3O)cc2)nn1)C(=O)NCCO | lecA | isothermal titration calorimetry | – | – | – | – | 0.9 ± 0.1
OC[C@H]1O[C@@H](Oc2ccc(OCc3cn([C@H]4[C@H](O)[C@@H](O)[C@H](c5cn([C@H]6[C@H](O)[C@@H](O)[C@H](n7cc(COc8ccc(O[C@@H]9O[C@H](CO)[C@H](O)[C@H](O)[C@H]9O)cc8)nn7)O[C@@H]6CO)nn5)O[C@@H]4CO)nn3)cc2)[C@H](O)[C@@H](O)[C@H]1O | lecA | isothermal titration calorimetry | – | 25 °C | – | – | 0.43 ± 0.01
O=C(COc1ccc(F)cc1)N[C@@H](Cc1cn(CCNC(=O)c2ccc(S[C@@H]3O[C@H](CO)[C@H](O)[C@H](O)[C@H]3O)cc2)nn1)C(=O)NCCO | lecA | isothermal titration calorimetry | – | – | – | – | 1 ± 0.2
CC[C@H](C)[C@H](NC(=O)[C@H](CCCNC(=N)N)NC(=O)NC[C@H](CCC(N)=O)NC(=O)NC[C@H](CCc1ccccc1)NC(=O)NC[C@H](CCCNC(=N)N)NC(=O)NC[C@H](Cc1ccc2ccccc2c1)NC(=O)[C@H](CCCCN)NC(=O)[C@H](CCC(=O)O)NC(C)=O)C(=O)N[C@@H](C)C(N)=O | Histone chaperone ASF1A | isothermal titration calorimetry | pH 7.5 | 20 °C | – | – | 1.4 ± 0.2

Repeated from above:
Structure (SMILES) | target | technique | pH | temperature | notes | with | binding stoichiometry
CSCC[C@H](NC(=O)[C@H](CO)NC(=O)[C@@H](NC(=O)[C@H](CCC(N)=O)NC(=O)[C@@H](CCCNC(=N)N)NC(=O)[C@@H](CCCNC(=N)N)NC(=O)[C@@H](CCCCN)NC(=O)[C@@H](CCCNC(=N)N)NC(C)=O)[C@@H](C)O)C(=O)N[C@H](C(=O)N[C@@H](CC(=O)O)C(=O)N[C@@H](Cc1ccccc1)C(=O)N[C@@H](Cc1ccc(O)cc1)C(=O)N[C@@H](Cc1c[nH]cn1)C(=O)N[C@@H](CO)C(=O)N[C@H](CCCCN)C(=O)N[C@H](CCCNC(=N)N)C(=O)N[C@H](CCCNC(=N)N)C(N)=O)[C@@H](C)O | PCNA (Homo sapiens, UniProt P12004) | isothermal titration calorimetry | pH 7.4 | 25 °C | 400 mM NaCl | p21 peptide | 0.73 ± 0.01
O=C(COCCCc1ccccc1)N[C@@H](Cc1cn(CCNC(=O)c2ccc(S[C@@H]3O[C@H](CO)[C@H](O)[C@H](O)[C@H]3O)cc2)nn1)C(=O)NCCO | lecA | isothermal titration calorimetry | – | – | – | – | 1
